Published values gathered from unrelated publications.
Numbered parts are unrelated; each lists some results of a single study. Several values in a cell are separate wells, animals, samples, runs or records.
Chain of UniProt P50750 (whole entry, looked up): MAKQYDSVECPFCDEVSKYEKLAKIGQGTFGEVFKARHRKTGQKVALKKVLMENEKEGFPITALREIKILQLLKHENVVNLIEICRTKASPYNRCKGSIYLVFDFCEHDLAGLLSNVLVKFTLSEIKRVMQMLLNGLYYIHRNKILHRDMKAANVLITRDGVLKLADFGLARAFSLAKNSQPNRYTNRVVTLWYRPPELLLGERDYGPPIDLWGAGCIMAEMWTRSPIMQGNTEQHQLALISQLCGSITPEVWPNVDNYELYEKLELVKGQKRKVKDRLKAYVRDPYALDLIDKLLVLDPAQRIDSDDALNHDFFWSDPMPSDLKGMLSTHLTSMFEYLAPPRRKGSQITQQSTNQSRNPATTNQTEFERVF
Chain of UniProt Q96L34 (whole entry, looked up): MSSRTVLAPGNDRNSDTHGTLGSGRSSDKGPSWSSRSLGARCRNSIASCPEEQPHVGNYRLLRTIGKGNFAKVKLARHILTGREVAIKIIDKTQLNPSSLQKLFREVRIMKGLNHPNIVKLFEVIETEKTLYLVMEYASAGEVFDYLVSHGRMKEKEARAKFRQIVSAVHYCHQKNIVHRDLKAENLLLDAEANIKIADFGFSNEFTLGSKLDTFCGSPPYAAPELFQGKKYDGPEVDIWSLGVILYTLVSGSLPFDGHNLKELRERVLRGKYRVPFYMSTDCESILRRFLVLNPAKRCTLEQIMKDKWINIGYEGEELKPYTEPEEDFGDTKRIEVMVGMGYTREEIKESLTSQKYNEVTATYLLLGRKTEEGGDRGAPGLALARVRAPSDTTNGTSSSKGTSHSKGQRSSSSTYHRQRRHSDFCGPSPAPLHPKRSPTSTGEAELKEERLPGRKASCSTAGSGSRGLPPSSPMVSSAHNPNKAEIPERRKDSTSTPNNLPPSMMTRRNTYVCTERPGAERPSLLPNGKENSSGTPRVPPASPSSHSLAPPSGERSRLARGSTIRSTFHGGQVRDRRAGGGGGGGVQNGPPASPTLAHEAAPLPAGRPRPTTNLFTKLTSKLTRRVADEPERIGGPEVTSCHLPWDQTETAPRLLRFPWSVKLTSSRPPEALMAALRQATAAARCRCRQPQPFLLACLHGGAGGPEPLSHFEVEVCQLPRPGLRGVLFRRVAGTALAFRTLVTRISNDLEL
Chain of UniProt Q16539 (whole entry, looked up): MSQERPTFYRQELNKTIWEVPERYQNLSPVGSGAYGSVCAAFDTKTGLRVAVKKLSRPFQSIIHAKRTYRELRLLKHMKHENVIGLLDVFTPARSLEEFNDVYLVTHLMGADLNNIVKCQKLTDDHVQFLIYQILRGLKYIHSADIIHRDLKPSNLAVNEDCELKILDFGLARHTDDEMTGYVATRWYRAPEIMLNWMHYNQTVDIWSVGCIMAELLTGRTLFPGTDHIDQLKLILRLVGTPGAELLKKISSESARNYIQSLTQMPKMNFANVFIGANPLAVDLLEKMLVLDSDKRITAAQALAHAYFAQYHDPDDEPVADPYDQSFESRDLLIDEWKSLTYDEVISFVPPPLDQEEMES
Chain of UniProt Q16566 (whole entry, looked up): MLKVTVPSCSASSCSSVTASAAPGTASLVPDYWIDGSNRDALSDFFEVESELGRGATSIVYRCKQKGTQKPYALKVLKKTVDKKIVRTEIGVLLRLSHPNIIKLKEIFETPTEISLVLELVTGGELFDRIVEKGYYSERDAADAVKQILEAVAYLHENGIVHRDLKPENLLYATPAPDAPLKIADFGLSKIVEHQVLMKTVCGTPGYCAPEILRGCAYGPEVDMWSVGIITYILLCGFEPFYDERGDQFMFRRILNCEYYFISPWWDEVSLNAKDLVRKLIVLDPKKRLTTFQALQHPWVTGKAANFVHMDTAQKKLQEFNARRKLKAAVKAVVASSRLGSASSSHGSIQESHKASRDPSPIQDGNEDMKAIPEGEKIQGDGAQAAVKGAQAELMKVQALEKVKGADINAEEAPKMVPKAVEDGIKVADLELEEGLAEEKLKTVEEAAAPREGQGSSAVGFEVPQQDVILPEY
Chain of UniProt P47898 (whole entry, looked up): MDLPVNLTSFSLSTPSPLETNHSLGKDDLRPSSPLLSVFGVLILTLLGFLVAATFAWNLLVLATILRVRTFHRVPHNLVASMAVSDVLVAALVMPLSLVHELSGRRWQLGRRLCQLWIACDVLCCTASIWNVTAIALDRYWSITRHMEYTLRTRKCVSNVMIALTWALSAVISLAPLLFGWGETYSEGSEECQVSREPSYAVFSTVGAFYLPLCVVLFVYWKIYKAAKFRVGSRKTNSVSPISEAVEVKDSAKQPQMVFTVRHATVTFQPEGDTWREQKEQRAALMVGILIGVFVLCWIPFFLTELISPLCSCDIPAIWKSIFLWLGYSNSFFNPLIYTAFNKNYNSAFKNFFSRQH
Chain of UniProt Q8N4C8 (whole entry, looked up): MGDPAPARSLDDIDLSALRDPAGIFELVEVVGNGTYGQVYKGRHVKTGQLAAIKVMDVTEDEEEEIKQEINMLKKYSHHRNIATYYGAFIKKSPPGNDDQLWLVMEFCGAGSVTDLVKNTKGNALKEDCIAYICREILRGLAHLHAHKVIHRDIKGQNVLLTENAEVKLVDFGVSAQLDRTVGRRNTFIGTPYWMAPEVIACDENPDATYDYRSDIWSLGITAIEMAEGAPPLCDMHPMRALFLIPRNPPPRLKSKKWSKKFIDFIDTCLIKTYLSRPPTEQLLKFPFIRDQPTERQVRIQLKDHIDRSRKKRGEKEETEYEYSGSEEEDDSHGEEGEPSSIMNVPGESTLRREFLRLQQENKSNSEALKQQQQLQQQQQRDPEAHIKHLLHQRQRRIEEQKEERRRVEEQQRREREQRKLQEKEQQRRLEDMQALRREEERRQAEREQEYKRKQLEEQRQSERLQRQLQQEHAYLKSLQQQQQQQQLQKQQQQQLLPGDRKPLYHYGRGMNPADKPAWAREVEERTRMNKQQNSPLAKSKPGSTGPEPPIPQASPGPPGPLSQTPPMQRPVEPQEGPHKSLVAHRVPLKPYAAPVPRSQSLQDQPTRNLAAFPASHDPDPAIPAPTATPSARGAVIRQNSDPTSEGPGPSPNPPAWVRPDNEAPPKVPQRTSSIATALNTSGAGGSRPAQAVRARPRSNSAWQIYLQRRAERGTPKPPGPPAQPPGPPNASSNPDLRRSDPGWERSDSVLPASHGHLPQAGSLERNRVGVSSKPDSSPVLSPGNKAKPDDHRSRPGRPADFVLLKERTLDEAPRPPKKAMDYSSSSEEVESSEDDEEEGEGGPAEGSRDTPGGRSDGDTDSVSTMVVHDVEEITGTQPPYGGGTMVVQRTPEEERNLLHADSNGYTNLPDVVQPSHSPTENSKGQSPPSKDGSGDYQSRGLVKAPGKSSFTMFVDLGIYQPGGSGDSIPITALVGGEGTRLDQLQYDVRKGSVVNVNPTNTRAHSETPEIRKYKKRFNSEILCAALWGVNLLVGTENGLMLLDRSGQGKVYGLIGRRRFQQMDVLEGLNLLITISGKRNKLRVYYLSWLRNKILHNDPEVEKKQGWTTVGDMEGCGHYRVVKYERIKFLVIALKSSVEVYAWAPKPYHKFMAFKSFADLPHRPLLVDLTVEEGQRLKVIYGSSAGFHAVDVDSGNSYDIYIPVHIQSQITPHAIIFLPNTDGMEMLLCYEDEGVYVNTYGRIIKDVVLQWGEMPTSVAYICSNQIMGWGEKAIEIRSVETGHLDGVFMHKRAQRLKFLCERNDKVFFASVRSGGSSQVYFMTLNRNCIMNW
Chain of UniProt Q8N568 (whole entry, looked up): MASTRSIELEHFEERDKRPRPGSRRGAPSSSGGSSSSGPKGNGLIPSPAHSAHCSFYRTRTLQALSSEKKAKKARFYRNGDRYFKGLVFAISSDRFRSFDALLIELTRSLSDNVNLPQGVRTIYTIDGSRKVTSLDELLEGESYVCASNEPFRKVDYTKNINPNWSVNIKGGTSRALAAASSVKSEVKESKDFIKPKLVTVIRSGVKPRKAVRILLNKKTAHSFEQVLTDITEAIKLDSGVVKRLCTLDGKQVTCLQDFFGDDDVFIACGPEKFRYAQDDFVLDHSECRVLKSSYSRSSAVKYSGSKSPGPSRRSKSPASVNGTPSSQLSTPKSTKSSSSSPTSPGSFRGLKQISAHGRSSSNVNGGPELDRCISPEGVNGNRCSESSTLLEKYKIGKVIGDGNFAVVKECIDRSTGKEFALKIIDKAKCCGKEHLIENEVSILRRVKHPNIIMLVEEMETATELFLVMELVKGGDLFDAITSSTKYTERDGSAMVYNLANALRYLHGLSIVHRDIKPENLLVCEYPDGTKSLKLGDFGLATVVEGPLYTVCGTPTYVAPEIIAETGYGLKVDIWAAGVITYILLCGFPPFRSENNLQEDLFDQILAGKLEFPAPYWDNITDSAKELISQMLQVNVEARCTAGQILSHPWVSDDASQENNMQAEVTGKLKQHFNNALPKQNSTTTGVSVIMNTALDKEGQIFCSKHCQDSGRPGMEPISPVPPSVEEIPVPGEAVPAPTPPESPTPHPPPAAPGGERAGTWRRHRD

Series 1
Structure (SMILES): COc1cc(C(=O)N2CCC(N3CCN(C)CC3)CC2)ccc1Nc1ncc2c(n1)N(C)c1ccccc1C(=O)N2C
For mouse CaMK2β and CaMK2δ; probe labelling, KiNativ ATP probe; mouse brain lysate; 1 µM, LYS1 site: inhibition read -14.1%.
The inhibition was 4.5% (QSK (mouse); probe labelling, KiNativ, refers to: LYS2 site peptide; brain tissue lysate (mouse); 1 µM, with: ADP acyl-phosphate probe).
The inhibition was 7.9% (CaMKK1 (mouse); probe labelling, KiNativ, refers to: Lys1 site peptide; brain tissue lysate (mouse); 0.1 µM, with: ATP acyl-phosphate probe).
ACK (mouse); probe labelling, KiNativ, refers to: Lys1 site peptide; brain tissue lysate (mouse); 1 µM, with: ATP acyl-phosphate probe — inhibition: 18.1%.
It gave 8.8% for inhibition (ZAP70 human; KiNativ profiling; human PBMC; 0.1 µM, DFG motif site, with: ATP acyl phosphate probe).
For ZC1/HGK (mouse); probe labelling, KiNativ, refers to: LYS1 site peptide; brain tissue lysate (mouse); 1 µM, with: ATP acyl-phosphate probe: inhibition read 0.4%.
It gave -0.1% for inhibition (human PBMC; probe labeling, inhibitor, KiNativ profiling, refers to: EVAVkIIDK; cell lysate; 1 µM, LYS1 site, with: ADP acyl-phosphate probe).
It gave 14.5% for inhibition (CDK5 (mouse); probe labelling, KiNativ ATP probe; mouse brain lysate; 1 µM, LYS2 labelled site).
For TBK1 mouse; KiNativ profiling; mouse brain lysate; 1 µM, LYS1 site, with: ADP acyl phosphate probe: inhibition read 19.2%.
It gave 0% for inhibition (TBK1 mouse; KiNativ profiling; mouse brain lysate; 0.1 µM, LYS1 site, with: ADP acyl phosphate probe).
It gave -18.4% for inhibition (BTK human; KiNativ profiling; human PBMC; 1 µM, activation loop site, with: ATP acyl phosphate probe).
inhibitor, KiNativ profiling, refers to: peptide VLGTGAYGkVFLVR; human PBMC lysate; concentration not given, ATP loop site, with: ATP acyl-phosphate probe — inhibition: 2.4%.

Series 2
Target: Eukaryotic initiation factor 4A-I (EIF4A1, Homo sapiens, UniProt P60842)
Chain of UniProt P60842 (whole entry, looked up): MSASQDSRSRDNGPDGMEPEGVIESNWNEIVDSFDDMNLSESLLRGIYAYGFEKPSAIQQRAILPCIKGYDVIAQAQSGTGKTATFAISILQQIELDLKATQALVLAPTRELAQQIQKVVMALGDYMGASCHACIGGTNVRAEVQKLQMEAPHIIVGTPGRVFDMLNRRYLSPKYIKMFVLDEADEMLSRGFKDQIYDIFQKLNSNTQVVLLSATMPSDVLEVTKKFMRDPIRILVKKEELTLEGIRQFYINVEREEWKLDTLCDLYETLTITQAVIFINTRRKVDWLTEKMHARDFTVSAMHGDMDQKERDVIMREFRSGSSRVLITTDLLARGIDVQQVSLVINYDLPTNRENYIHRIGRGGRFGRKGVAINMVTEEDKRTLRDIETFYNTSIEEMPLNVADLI
Observed: RNA clamping
Technique: fluorescence polarization
Concentration: concentration not given
With: FAM-labelled poly r(AG)8 RNA
Reading: higher = more clamping
Under “fluorescence polarization change”, `COc1ccc([C@@]23Oc4cc(OC)cc(OC)c4[C@]2(O)C(=O)[C@H](C(=O)NCCCC2(C)OCCO2)[C@H]3c2ccccc2)cc1` is recorded as 62.8 mP.
`COc1cc(OC)c2c(c1)O[C@@]1(c3ccc(Br)cc3)[C@H](c3ccccc3)C3=C(N[C@@H]4CCCN4C3=O)[C@@]21O` — result for “fluorescence polarization change”: 44.5 mP.
`COc1cc(OC)c2c(c1)O[C@@]1(c3ccc(Br)cc3)[C@H](c3ccccc3)C3=C(O[C@@H]4CCCN4C3=O)[C@@]21O` — result for “fluorescence polarization change”: 62.4 mP.
`COC(=O)[C@@H]1[C@@H](O)[C@@]2(O)c3c(OC)cc(OS(=O)(=O)c4ccc(C)cc4)cc3O[C@@]2(c2ccc(Br)cc2)[C@H]1c1ccccc1` — result for “fluorescence polarization change”: 7.3 mP.
For `COc1ccc([C@]23Oc4cc(OC)cc(OC)c4[C@](O)(C2O)[C@H](c2c(F)c(F)c(F)c(F)c2F)[C@H]3c2ccccc2)cc1` (some centres unmarked), “fluorescence polarization change” read 8.1 mP.
`C=CCN[C@@]12C(=O)[C@H](C(=O)OC)[C@@H](c3ccccc3)[C@]1(c1ccc(OC)cc1)Oc1cc(OC)cc(OC)c12` — result for “fluorescence polarization change”: -10.3 mP.
`CN[C@@]12C(=O)[C@H](C(=O)OC)[C@@H](c3ccccc3)[C@]1(c1ccc(OC)cc1)Oc1cc(OC)cc(OC)c12`: “fluorescence polarization change” -3.7 mP.
`COC(=O)[C@@H]1[C@@H](c2ccccc2)[C@]2(c3ccc(OC)cc3)Oc3cc(OC)cc(OC)c3[C@@]23NC(C2CCCCC2)=N[C@@]13O` — result for “fluorescence polarization change”: 63.4 mP.
Under “fluorescence polarization change”, `COC(=O)[C@@H]1[C@@H](c2ccccc2)[C@]2(c3ccc(OC)cc3)Oc3cc(OC)cc(OC)c3[C@@]23N2CCCC2=N[C@@]13O` is recorded as -3.1 mP.

Series 3
Structure (SMILES): CC(C)(C)c1nc2c3cc[nH]c(=O)c3c3cc(F)ccc3c2[nH]1
Observed: enzyme activity
Action: inhibitor
Concentration: 0.5 µM
Relative to: control
The remaining activity was 112% (PNCK (Homo sapiens, UniProt Q6P2M8)).
ROCK1 (Homo sapiens, UniProt Q13464) — remaining activity: 74.9%.
The remaining activity was 74.4% (NEK3 (Homo sapiens, UniProt P51956)).
For Cyclin-dependent kinase 1, with cyclin A (CDK1, Homo sapiens, UniProt P06493): remaining activity read 89.4%.
The remaining activity was 81.8% (CAMK4 (Homo sapiens, UniProt Q16566)).
The remaining activity was 14.3% (PRKG2 (Homo sapiens, UniProt Q13237)).
The remaining activity was 44.7% (RPS6KA4 (Homo sapiens, UniProt O75676)).
MAPK1 (Homo sapiens, UniProt P28482) — remaining activity: 96.1%.
The remaining activity was 65.8% (DCLK2 (Homo sapiens, UniProt Q8N568)).
MINK1 (Homo sapiens, UniProt Q8N4C8) — remaining activity: 52%.
KDR (Homo sapiens, UniProt P35968) — remaining activity: 103%.
It gave 90.1% for remaining activity (PAK3 (Homo sapiens, UniProt O75914)).
For TXK (Homo sapiens, UniProt P42681): remaining activity read 77.1%.
For MARK2 (Homo sapiens, UniProt Q7KZI7): remaining activity read 41.5%.
CLK3 (Homo sapiens, UniProt P49761) — remaining activity: 50.5%.
For MAPK11 (Homo sapiens, UniProt Q15759): remaining activity read 83.4%.
For GRK4 (Homo sapiens, UniProt P32298): remaining activity read 74.2%.
The remaining activity was 70.7% (CLK4 (Homo sapiens, UniProt Q9HAZ1)).
For Cyclin-dependent kinase 9, with cyclin K (CDK9, Homo sapiens, UniProt P50750): remaining activity read 92.3%.
The remaining activity was 94.9% (MAP2K1 (Homo sapiens, UniProt Q02750)).
The remaining activity was 11% (PLK3 (Homo sapiens, UniProt Q9H4B4)).
The remaining activity was 93.5% (MAPK14 (Homo sapiens, UniProt Q16539)).
It gave 44.5% for remaining activity (MARK4 (Homo sapiens, UniProt Q96L34)).
For AKT2 (Homo sapiens, UniProt P31751): remaining activity read 89.8%.

Series 4
Cell line: mouse MPNST tumor cells
Technique: high-content immunofluorescence imaging
Refers to: nuclear SOX9
Concentration: 10 µM
Time: 12 h
Notes: mean of 2 replicates
Relative to: DMSO control
Reading: higher = more nuclear SOX9
For `CNS(=O)(=O)Cc1ccc2[nH]cc(CCN(C)C)c2c1`, “nuclear SOX9 intensity” read 101 % of DMSO and 91.9 % of DMSO and 96.2 % of DMSO.
`COc1cc(N2CCOCC2)ccc1Nc1ncc(F)c(Nc2ccccc2NS(C)(=O)=O)n1` — result for “nuclear SOX9 intensity”: 93.9 % of DMSO.
`C=CC[N@@+]12CC[C@@]34c5ccccc5N5/C=C6/[C@H]7C[C@H]8[C@@]9(CC[N@@+]8(CC=C)C/C7=C/CO)c7ccccc7N(/C=C(/[C@@H](C[C@@H]31)/C(=C\CO)C2)[C@H]54)[C@@H]69` — result for “nuclear SOX9 intensity”: 94.3 % of DMSO.
`CC(C)(C)n1nc(-c2ccc(Cl)cc2)c2c(N)ncnc21` — result for “nuclear SOX9 intensity”: 151 % of DMSO.
`Cc1cc(C(=O)NNCc2ccccc2)no1` — result for “nuclear SOX9 intensity”: 101 % of DMSO.
Under “nuclear SOX9 intensity”, `Cc1ccc(-c2cnccc2-c2cnc(Nc3ccc(O)cc3)s2)c(Cl)c1` is recorded as 219 % of DMSO.
`Cc1c(C)c2c(c(C)c1O)CCC(C)(C(=O)O)O2` (centres unmarked) — result for “nuclear SOX9 intensity”: 109 % of DMSO.

Mixed results
With `CC1=C(C#N)C(c2ccc3c(c2)c(NC(=O)c2ccccc2C)nn3C)C(C#N)=C(C)N1` the inhibition was 0.04% (5-hydroxytryptamine receptor 5A (HTR5A, Homo sapiens, UniProt P47898); ligand displacement; 10 µM).

Repeated from above (series 2):
`C=CCN[C@@]12C(=O)[C@H](C(=O)OC)[C@@H](c3ccccc3)[C@]1(c1ccc(OC)cc1)Oc1cc(OC)cc(OC)c12` — result for “fluorescence polarization change”: -10.3 mP.
`COc1cc(OC)c2c(c1)O[C@@]1(c3ccc(Br)cc3)[C@H](c3ccccc3)C3=C(O[C@@H]4CCCN4C3=O)[C@@]21O` — result for “fluorescence polarization change”: 62.4 mP.
Under “fluorescence polarization change”, `COC(=O)[C@@H]1[C@@H](c2ccccc2)[C@]2(c3ccc(OC)cc3)Oc3cc(OC)cc(OC)c3[C@@]23N2CCCC2=N[C@@]13O` is recorded as -3.1 mP.
`COc1cc(OC)c2c(c1)O[C@@]1(c3ccc(Br)cc3)[C@H](c3ccccc3)C3=C(N[C@@H]4CCCN4C3=O)[C@@]21O` — result for “fluorescence polarization change”: 44.5 mP.
